# Assay results collected from several papers.
# Parts stem from different laboratories: compare values within a part only.

# Sample 1
# Target: Histone acetyltransferase KAT6A, winged helix 1, GST fusion (KAT6A, Homo sapiens, UniProt Q92794, residues 1-85)
# Technique: protein binding microarray
# Form: double-stranded DNA, one strand shown
# Matrix: in vitro
# Concentration: not given
# Notes: 8-mer, flanks averaged, mean of 2 arrays, mostly near background
# Relative to: not given
# Direction: higher = stronger binding
# Construct (chain): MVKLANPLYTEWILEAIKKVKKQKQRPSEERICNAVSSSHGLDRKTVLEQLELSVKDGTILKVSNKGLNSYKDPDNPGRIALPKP
Sequence,E-score
CAGACATG,-0.0362
CAGCATCG,-0.0876
GCGGGCTA,0.225
AGGTGTTG,-0.061

# Sample 2
# Target: Interferon regulatory factor 7, full length, phosphomimetic (IRF7, Homo sapiens, UniProt Q92985, residues 1-503, S101K/S471D/S472D/S475D/S476D/S477D/S483D/S484D/S487D)
# UniProt Q92985, sequence (whole entry, unmodified, looked up): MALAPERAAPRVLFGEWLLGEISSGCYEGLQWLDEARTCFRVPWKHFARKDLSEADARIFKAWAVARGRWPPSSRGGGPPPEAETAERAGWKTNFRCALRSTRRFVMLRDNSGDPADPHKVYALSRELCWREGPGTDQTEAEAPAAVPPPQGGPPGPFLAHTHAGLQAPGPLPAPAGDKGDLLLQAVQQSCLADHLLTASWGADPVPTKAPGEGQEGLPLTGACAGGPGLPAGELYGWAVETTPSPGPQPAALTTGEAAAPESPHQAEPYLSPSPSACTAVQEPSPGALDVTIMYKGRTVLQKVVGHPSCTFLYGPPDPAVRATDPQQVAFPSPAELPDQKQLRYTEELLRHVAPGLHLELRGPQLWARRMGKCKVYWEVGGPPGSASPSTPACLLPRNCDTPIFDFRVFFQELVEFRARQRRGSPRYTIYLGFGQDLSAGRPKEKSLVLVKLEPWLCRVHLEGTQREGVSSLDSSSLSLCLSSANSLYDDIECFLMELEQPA
# Technique: protein-binding microarray
# Form: double-stranded DNA, one strand shown
# Matrix: in vitro
# Concentration: 250 nM
# Notes: 60-bp whole probe
# Added: salmon DNA 0.4 mg/ml
# Relative to: random background probes
# Direction: higher = stronger binding
Sequence,log fluorescence
GCCTAGCACTTAGGACTGGGGTTTCGGTAAGTGCTAGTCTTGATTCGCTTGACGCTGCTG,1.36 z-score
GCCTAGCACTCACTGATCCATTTTGGACTGTGCTAGGTCTTGATTCGCTTGACGCTGCTG,-0.304 z-score
GCCTAGCACGACGGTTTCAGTTTCGGGACGTGCTAGGTCTTGATTCGCTTGACGCTGCTG,7.71 z-score

# Sample 3
# Target: RNA binding protein fox-1 homolog 2, RRM domain, GST-SBP tag (RBFOX2, Homo sapiens, UniProt O43251-10, residues 100-194)
# Technique: RNA Bind-n-Seq
# Form: RNA
# Matrix: in vitro
# Concentration: 365 nM
# Notes: natural RNA segment, single round, ends assumed
# Relative to: no-protein control
# Direction: higher = stronger binding
# Construct (chain): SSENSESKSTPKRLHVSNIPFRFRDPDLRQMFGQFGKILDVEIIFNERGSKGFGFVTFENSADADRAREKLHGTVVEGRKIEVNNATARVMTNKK
Sequence,RBNS enrichment (R)
GGGAGUUCUACAGUCCGACGAUCCAUUUUUACUAAUCCUAAUACUCUGCUCUAGCUUGCUUCAGAACUCCCGUGGCUUUGCUUGAUCUGUUGUUGCUUCUCCUCAUCAAGACUUUGCAUCAUGUUAGCCAGCCUGGAAUUCUCGGGUGCCAA,0.766
GGGAGUUCUACAGUCCGACGAUCGGAAGAAAAACCACGCUAAAAAUCAAGCCACUGAAAACAAUUGCCCCCAGGUCUACCCAGCCCCUGGCUGUCCUUGGUCCUGUCUCCCCUCCUGCUGUAUUCAGGGGUGCUGGAAUUCUCGGGUGCCAA,0.62
GGGAGUUCUACAGUCCGACGAUCCCUGUGGCCCUAUGGUGUGAUGCUGUGUCUGUAUCUAUGUGUCUAUACAAAGGUACUUGCCCUUUCCCUUUGUAAACUACAUUUGACAUGGAUUAAAACAGUAUAAACAAUGGAAUUCUCGGGUGCCAA,0.466
GGGAGUUCUACAGUCCGACGAUCGGGGGCAACAGGGGCCAGACUCCUCUAGAGGGAGGGUGGCUCUGGGGCCCUGGAAAACGUGAGAGACUGCCCUGAGCUGGUCCAGUGGGCCAGCACUUUAUACCAACUCAUGGAAUUCUCGGGUGCCAA,0.232

# Other studies, line by line
Substance,target,test,test system,conditions,scale,measurement,value
"PhoQ, residues 284 288 289 292 302 303 SQSLSM","PhoP, residues 12 14 15 18 19 LWHVM (Escherichia coli, UniProt P23836)","Sort-seq, item: YFP reporter",E. coli,"PhoQ-PhoP variant library, added: 10 µM Mg2+","relative to: high Mg2+ state, higher = stronger signaling",fold induction,8.48

# Some of these lines once more (sample 3):
Sequence,RBNS enrichment (R)
GGGAGUUCUACAGUCCGACGAUCGGGGGCAACAGGGGCCAGACUCCUCUAGAGGGAGGGUGGCUCUGGGGCCCUGGAAAACGUGAGAGACUGCCCUGAGCUGGUCCAGUGGGCCAGCACUUUAUACCAACUCAUGGAAUUCUCGGGUGCCAA,0.232
GGGAGUUCUACAGUCCGACGAUCCAUUUUUACUAAUCCUAAUACUCUGCUCUAGCUUGCUUCAGAACUCCCGUGGCUUUGCUUGAUCUGUUGUUGCUUCUCCUCAUCAAGACUUUGCAUCAUGUUAGCCAGCCUGGAAUUCUCGGGUGCCAA,0.766
